Experimental data pooled from the literature.
Compare with care: the assays were run in different laboratories.

Cn1cncc1-c1c(F)cncc1NC(=O)c1c(N)nn2cc(F)cnc12 — patients grade ≥3 Anemia (human patients; oral, up to 40 mg once daily): 0%
Cn1ncc(-c2nc(N[C@H]3CC[C@H](N)CC3)ncc2Cl)c1CC1CC1 — patients with adverse events (item: treatment-related Thrombocytopenia grade 3 or higher; human patients phase I; dose not given): 3.2%
C[C@@H]1OC(=O)NN=C1c1ccc(-c2ccc(F)cc2)c(C(F)(F)F)c1 — patients with adverse event (phase I trial, item: abdominal distension worst grade 1; human patients; 10 mg loading then 0.5 mg daily): 0%
C[C@]1(O)C[C@@](N)(c2ccc(-c3nc4n(c3-c3ccccc3)COc3ccncc3-4)cc2)C1 — patients with decreased appetite (human, advanced or metastatic solid tumours; 28 mg intermittent, phase I dose escalation): 66.7%
O=C(c1ccc(F)c(F)c1Nc1ccc(I)cc1F)N1CC(O)([C@@H]2CCCCN2)C1 — patients with SAE leading to withdrawal (human patients; oral, 1 mg/kg, dose expansion cohort): 8%
CCN(CCO)CCCC(C)Nc1ccnc2cc(Cl)ccc12 (stereo not shown) — patients with adverse event (human, newly diagnosed glioblastoma; oral, 400 mg/dose, platelet decrease grade 4, with RT and TMZ): 14%
CCS(=O)(=O)Nc1ccc(Oc2ccc(F)cc2F)c(-c2cn(C)c(=O)c3[nH]ccc23)c1 — patients with fatal adverse event (item: Sepsis; human, relapsed/refractory AML; oral, dose not given, trial, with: alone or with venetoclax): 5%
Cc1cn([C@H]2O[C@@H](CO[P@@](=O)(N[C@@H](C)C(=O)OC(C)C)Oc3ccccc3)[C@H](O)[C@H]2F)c(=O)[nH]c1=O — patients with TEAE (item: bone pain; human; 50 mg): 0%
COc1ncnn2ccc(-c3cnc4nc(C)n(Cc5nnc([C@@H](C)F)o5)c4c3)c12 — patients with malaise (human; oral, dose not given, grade 2): 0%
C=CC(=O)Nc1cc(Nc2nccc(Nc3cc(Cl)c(F)cc3C(C)(C)O)n2)c(OC)cc1N1CC[C@@H](N(C)C)C1 — patients with hypokalaemia (human patients; oral, 50 mg, treatment-emergent adverse events): 0%

Repeated from above:
Cc1cn([C@H]2O[C@@H](CO[P@@](=O)(N[C@@H](C)C(=O)OC(C)C)Oc3ccccc3)[C@H](O)[C@H]2F)c(=O)[nH]c1=O — patients with TEAE (item: bone pain; human; 50 mg): 0%
